Published values of several laboratories.
Compare with care: the assays were run in different laboratories. Values joined by “and” are separate records of one study, mostly repeats; a detail may differ. ± marks the error that the study gave.

Cc1nn(-c2nc3c(F)cc(F)cc3s2)c(O)c1C(c1ccc(C(F)(F)F)cc1)c1c(C)nn(-c2nc3c(F)cc(F)cc3s2)c1O — phospho-TBK1 to TBK1 ratio (THP1-Dual; western blot; 20 µM, separate blot, together with: HT-DNA; baseline: DMSO): 0.575 and 0.491 and 0.562
CCCCCCNC(=O)n1cc(F)c(=O)[nH]c1=O — ceramide level (SW-403; LC-MS, refers to: Cer(d18:1/18:0); 10 µM): 1 ± 0.19 pmol/mg protein
CCCCN1C[C@H](O)[C@@H](O)[C@@H](O)[C@H]1CO — IC50 (sample E patient fibroblasts; Gb3 level lowering, LC-MS/MS, refers to: Gb3 d18:1/20:0; 216 h): 56 µM
Cc1[nH]c(/C=C2\C(=O)Nc3ccc(S(=O)(=O)Cc4c(Cl)cccc4Cl)cc32)c(C)c1C(=O)N1CCC[C@@H]1CN1CCCC1 — ATP level (iCell Cardiomyocytes (hiPSC-derived); CellTiter-Glo; concentration not given, 24 h; baseline: control): 95.6%
O=C(O)c1ccc(-c2c[nH]c3ncc(-c4ccccc4)cc23)cc1C1CCCC1 — relative cell number (SK-OV-3; ATP; 0.1 µM, 4 days, 3D U-bottom low-attachment; baseline: untreated): 104%
COc1cc(N2CCC(N3CCN(C)CC3)CC2)ccc1Nc1ncc(Cl)c(Nc2ccccc2P(C)(C)=O)n1 — Emax (NB1 (ALK amplification, exon 2-3 deletion); cell viability): 79%
CCn1cc(-c2cc(Cn3ccnc3)cc3c2CCN([C@H](c2cc(OC)ccn2)C2CC2)C3=O)c(C(F)(F)F)n1 — EC50 (SNU-449; cell growth, inhibitor; 120 h): 29 µM
Clc1ccc(Nc2nnc(Cc3ccncc3)c3ccccc23)cc1 — cell index (iCell Cardiomyocytes (hiPSC-derived); cellular impedance; concentration not given, 24 h; baseline: control): 100%
COC(=O)c1cc(C(C)=NNc2nc(-c3ccc4c(c3)OCCCO4)cs2)ccc1O — cells in G1 phase (T47D; flow cytometry; 20 µM, 72 h): 31.7 ± 2.57%
Clc1ccc(C2(c3ccc(-c4cn[nH]c4)cc3)CCNCC2)cc1 — relative cell number (SK-OV-3; ATP; 3D gellan gum culture; 1 µM, 4 days; baseline: untreated): 76.2%
Cc1cc(Nc2ncc(Cl)c(Nc3ccccc3S(=O)(=O)C(C)C)n2)c(OC(C)C)cc1C1CCNCC1 — Emax (KARPAS-299 (NPM1-ALK); cell viability): 78.6%
CC[C@H](C)[C@H](NC(=O)[C@H](CC(C)C)NC(=O)[C@@H](NC(=O)[C@@H]1CCCN1C(=O)[C@@H](NC(=O)[C@@H]1CCCN1C(=O)[C@@H](NC(=O)[C@H](CO)NC(=O)[C@H](Cc1c[nH]cn1)NC(=O)[C@@H]1CCCN1C(=O)[C@H](CCCNC(=N)N)NC(=O)[C@H](CCCCN)NC(=O)[C@H](CCCNC(=N)N)NC(=O)[C@H](CCCNC(=N)N)NC(=O)[C@H](CCCNC(=N)N)NC(=O)[C@@H]1CCCN1C(=O)[C@H](CCCNC(=N)N)NC(=O)[C@H](CC(C)C)NC(=O)[C@H](CC(C)C)NC(=O)[C@H](Cc1c[nH]cn1)NC(=O)[C@H](Cc1c[nH]cn1)NC(=O)CNC(=O)[C@@H](N)CSSC[C@H](N)C(=O)NCC(=O)N[C@@H](Cc1c[nH]cn1)C(=O)N[C@@H](Cc1c[nH]cn1)C(=O)N[C@@H](CC(C)C)C(=O)N[C@@H](CC(C)C)C(=O)N[C@@H](CCCNC(=N)N)C(=O)N1CCC[C@H]1C(=O)N[C@@H](CCCNC(=N)N)C(=O)N[C@@H](CCCNC(=N)N)C(=O)N[C@@H](CCCNC(=N)N)C(=O)N[C@@H](CCCCN)C(=O)N[C@@H](CCCNC(=N)N)C(=O)N1CCC[C@H]1C(=O)N[C@@H](Cc1c[nH]cn1)C(=O)N[C@@H](CO)C(=O)N[C@H](C(=O)N1CCC[C@H]1C(=O)N[C@H](C(=O)N1CCC[C@H]1C(=O)N[C@H](C(=O)N[C@@H](CC(C)C)C(=O)N[C@H](C(=O)N[C@@H](Cc1ccccc1)C(=O)N[C@@H](CCCNC(=N)N)C(=O)N[C@@H](CO)C(=O)N1CCC[C@H]1C(=O)O)[C@@H](C)CC)[C@@H](C)CC)[C@@H](C)O)[C@@H](C)CC)[C@@H](C)CC)[C@@H](C)O)[C@@H](C)CC)C(=O)N[C@@H](Cc1ccccc1)C(=O)N[C@@H](CCCNC(=N)N)C(=O)N[C@@H](CO)C(=O)N1CCC[C@H]1C(=O)O — tumour cell density (MDA-MB-468, without PBMC; 10 µg/mL): no effect
CCOc1cc2ncc(C#N)c(Nc3ccc(OCc4ccccn4)c(Cl)c3)c2cc1NC(=O)/C=C/CN(C)C — cell index (iCell Cardiomyocytes (hiPSC-derived); cellular impedance; concentration not given, 24 h; baseline: control): 98.5%
COc1ccc2c(N(C)c3ccc(/C(C)=N/OCCN)cc3)c3c(Cl)coc3nc2c1 — Bax protein level (LNCaP C-81; immunoblot; 1 µM, 72 h, steroid-reduced medium): increased
Cc1cccc(-c2[nH]c(CNc3ccccc3F)nc2-c2ccc3ncnn3c2)n1 — surface marker level (RPMI-8226; flow cytometry, refers to: CD27; concentration not given; baseline: comparator compound alone): 50.3%
COc1cc(-c2ccccc2)ncc1C(=O)Nc1ccc2c(=O)[nH]c(-c3ccc(C(C)(C)O)cc3)nc2c1 — Hill slope (Apc Q1405X mutant organoids; organoid viability, AlamarBlue; mouse small intestinal organoids; 6 days, Tnks genotype Tnks-/-): -1.2
CCN1CCN(Cc2ccc(NC(=O)Nc3ccc(Oc4cc(NC)ncn4)cc3)cc2C(F)(F)F)CC1 — beat amplitude (iCell Cardiomyocytes (hiPSC-derived); xCELLigence Cardio impedance; concentration not given, 2 h; baseline: control): 102%
C#C[C@@]1(O)[C@@H](CO)O[C@@H](n2cc(Cl)c3c(N)ncnc32)[C@@H]1O — TGI (NCI/ADR-RES; cell growth, SRB): 0.777 µM
CC#CC(=O)N1CCC[C@H]1c1nc(-c2ccc(C(=O)Nc3ccccn3)cc2)c2c(N)nccn12 — IC50 (TMD8 RAC2 knockout; calcium flux, FLIPR; 4 h preincubation): 0.0079 µM
O=C(c1ccc(/C=C/c2n[nH]c3ccccc23)cc1)N1CCNCC1 — beat rate (iCell Cardiomyocytes (hiPSC-derived); xCELLigence Cardio impedance; concentration not given, 2 h; baseline: control): 77.9%
C[C@]12CC[C@@H]3c4ccc(O)cc4C[C@@H](CCCCCCCCC[S+]([O-])CCCC(F)(F)C(F)(F)F)[C@H]3[C@@H]1CC[C@@H]2O (stereo partly shown) — maximum inhibition (MCF7/luciferase, wild type; cell proliferation): 79.1%
CN1CCN(S(=O)(=O)c2ccc(-c3cnc(N)c(C(=O)Nc4cccnc4)n3)cc2)CC1 — fibulin-3 level (ARPE-19 HiBiT fibulin-3; HiBiT luminescence; 5 µM): -46.4%
CCOC(=O)Cc1sc(NCc2ncccn2)nc1-c1ccccn1 — selectivity ratio (THLE-2; baseline: CC50 THLE-2 over Huh-7): < 2
O=c1ccn([C@@H]2O[C@H](COP(=O)(O)OP(=O)(O)O)[C@@H](O)[C@H]2O)c(=O)[nH]1 — z-scored log2 fold change (binding, equilibrium dialysis LC-MS; 5 µM, thermostabilized A2AR-BRIL construct; baseline: no-protein control, direction not given): -6.4
COc1cc(/C=C/C(=O)N2CCC=CC2=O)cc(OC)c1OC — mRNA level (MDA-MB-468; qRT-PCR, refers to: NDUFA6; 30 µM, 6 h; baseline: time zero): 107 ± 21.3%
C=CC(=O)Nc1cccc(Oc2nc(Nc3ccc(N4CCN(C)CC4)cc3)nc3ccoc23)c1 — IC50 (TMD8 RAC2 knockout; calcium flux, FLIPR; 1 h preincubation): 0.06 µM
O=C(/C=C/C=C/C=C/C1CCCCC1)NC1=C[C@@](O)(/C=C/C=C/C=C/C(=O)NC2=C(O)CCC2=O)[C@@H]2O[C@@H]2C1=O — GI50 (SNU-407; cell growth, CellTiter-Glo; 78 h): 17.8 µM
COc1cnc2cccc(N3CCc4c(cc(Cn5ccnc5C)cc4-c4cn(C)nc4C(F)(F)F)C3=O)c2c1 — EC50 (Detroit 562; cell growth; 120 h): > 30 µM
CC(C)NCC(O)c1ccc(O)c(O)c1 (stereo not shown) — sarcomere length (mouse ventricular cardiomyocytes; dose not given, 0.359 s): 1.8 µm
Cc1ccc(CNC(=S)N/N=C/c2ccc(N3CCC(O)CC3)cc2)cc1 — selectivity ratio (BEAS-2B and A549; MTT; baseline: IC50 BEAS-2B over IC50 A549): 4.8
CC(C)(C)c1cnc(CSc2cnc(NC(=O)C3CCNCC3)s2)o1 — beat amplitude (iCell Cardiomyocytes (hiPSC-derived); xCELLigence Cardio impedance; concentration not given, 2 h; baseline: control): 102%
CCn1cc(-c2cc(Cn3ccoc3=N)cc3c2CCN([C@@H](C)c2cc(OC)ccn2)C3=O)c(C(F)(F)F)n1 — EC50 (CFPAC-1; cell growth, inhibitor; 120 h): > 30 µM
Cc1cc(Nc2ncc(Cl)c(Nc3ccccc3S(=O)(=O)C(C)C)n2)c(OC(C)C)cc1C1CCNCC1 — log2 fold change (CLB-GE; phosphoproteomics LC-MS/MS, refers to: MAP1A phosphorylation; 200 nM, 60 min; baseline: untreated): -2.94
Cn1c(Nc2nc3ccc(C(F)(F)F)cc3s2)nc2cc(C(=O)NCCOCCO)ccc21 — fold change (SH-SY5Y; RNA-seq, refers to: AOPEP mRNA; 5 µM, 5 h; baseline: untreated cells): 1.75
Cn1cc(-c2ccc(-c3cncc(Cl)c3N3CCC4(CCNC4=O)CC3)cc2)cn1 — log2 fold change (COLO 205; gene expression, microarray, refers to: CALD1 mRNA; concentration not given, 6 h; baseline: untreated cells): 2.01
COc1cc2ncnc(Cc3cccc(-c4cccc(CO)c4)c3)c2cc1OC — inhibition (A549; mitochondrial oxygen consumption, Seahorse XF96; 10 µM): 20%
NC(=O)c1ccc[n+]([C@@H]2O[C@H](COP(=O)([O-])OP(=O)(O)OC[C@H]3O[C@@H](n4cnc5c(N)ncnc54)[C@H](O)[C@@H]3O)[C@@H](O)[C@H]2O)c1 — z-scored log2 fold change (binding, equilibrium dialysis LC-MS; 5 µM, thermostabilized A2AR-BRIL construct; baseline: no-protein control, direction not given): 0.0457
Cc1ccc(NC(=O)c2ccc(CN3CCN(C)CC3)cc2)cc1Nc1nccc(-c2cccnc2)n1 — beat amplitude (iCell Cardiomyocytes (hiPSC-derived); xCELLigence Cardio impedance; concentration not given, 2 h; baseline: control): 100%
COc1ccc(OC)c(-c2nc3ccc(-c4nc5ccc(N6CCN(C)CC6)cc5[nH]4)cc3[nH]2)c1 — growth percent (NCI/ADR-RES; cell growth, NCI-60 SRB; 10 µM, 48 h): 104%
O=c1ncccn1[C@@H]1O[C@H](CO)[C@@H](O)[C@H]1O — apoptotic cells (MEC1; caspase-3/7 activation; concentration not given, 48 h pretreatment, maximum, any combination, unit not given, together with: external beam irradiation 1 and 2 Gy; baseline: control): ~7
Cc1ccc(F)c(NC(=O)Nc2ccc(-c3cccc4[nH]nc(N)c34)cc2)c1 — beat amplitude (iCell Cardiomyocytes (hiPSC-derived); xCELLigence Cardio impedance; concentration not given, 2 h; baseline: control): 99.4%
COc1ccc(C[C@@H]2c3cc(Oc4cc(/C=C5\CN(C)CCc6cc(OC)c(OC)cc65)ccc4O)c(OC)cc3CCN2C)cc1 — inhibition (3T3-L1; adipocyte lipid accumulation, Nile Red staining; 15 µM): 36.2 ± 1.8%
Cn1cc(Nc2nccc(-c3ccc4c(c3)CN(C3COC3)CC[C@H]4NC(=O)c3cn(C(C)(C)C)nn3)n2)cn1 — pathway activation z-score (mouse splenic B cells; refers to: p70S6K signalling; 30 mg/kg, IgD-activated in vivo; baseline: vehicle, direction not given): 3.15

Excerpt of the above:
COc1cnc2cccc(N3CCc4c(cc(Cn5ccnc5C)cc4-c4cn(C)nc4C(F)(F)F)C3=O)c2c1 — EC50 (Detroit 562; cell growth; 120 h): > 30 µM
CC(C)NCC(O)c1ccc(O)c(O)c1 (stereo not shown) — sarcomere length (mouse ventricular cardiomyocytes; dose not given, 0.359 s): 1.8 µm
